Experimental data gathered from unrelated publications.
Lines come from different studies, so protocols differ.
Cell line: IGROV-1

SMILES	test	conditions	scale	measurement	result
CCCN1CCN(c2ccc3[nH]c(-c4ccc5[nH]c(-c6ccc(OCC)c(OCC)c6)nc5c4)nc3c2)CC1	SRB	10 µM, 48 h	–	growth percent	-13.2%
Cc1cc(-c2ccccc2)n(-c2nc(-c3ccc(Cl)cc3)c3c(NC(=O)c4ccccc4)nnc-3[nH]2)n1	SRB	10 µM, NCI60 single-dose screen	baseline: untreated	cell growth	98.4%
O=c1ccn(Cc2cn(-c3c4ccccc4nc4ccccc34)nn2)c(=O)[nH]1	NCI60 single dose	10 µM	–	growth	80.9%
O=C(Nc1nnc2n3c(=S)[nH][nH]c3nc(-c3ccc(Cl)cc3)c1-2)c1ccccc1	SRB	10 µM, NCI60 single-dose screen	baseline: untreated	cell growth	97.5%
CCCN1CCN(c2ccc3[nH]c(-c4ccc5[nH]c(-c6ccc(C(F)(F)F)cc6)nc5c4)nc3c2)CC1	SRB	10 µM, 48 h	–	growth percent	-83.5%
CCN(CC)c1ccc(C=NNC(=O)CSc2nc3ccccc3c(=O)n2Cc2ccc(S(N)(=O)=O)cc2)c(O)c1	NCI five-dose screen	–	–	TGI	> 100000 nM
O=C(Nc1nnc2n3c(Cc4ccccc4)n[nH]c3nc(-c3ccc(Cl)cc3)c1-2)c1ccccc1	SRB	10 µM, NCI60 single-dose screen	baseline: untreated	cell growth	118%
O=C(c1cc(Cc2n[nH]c(=O)c3ccccc23)ccc1F)N1CCN(C(=O)C2CC2)CC1	–	–	–	IC50	939 nM
Cc1cc(=O)[nH]n1-c1nc(-c2ccc(Cl)cc2)c2c(NC(=O)c3ccccc3)nnc-2[nH]1	SRB	10 µM, NCI60 single-dose screen	baseline: untreated	cell growth	110%
CCCCN1CCN(c2ccc3nc(-c4ccc5nc(-c6cc(OC)ccc6OC)[nH]c5c4)[nH]c3c2)CC1	SRB	10 µM, 48 h	–	growth percent	94.5%
C#C[C@@]1(O)[C@@H](CO)O[C@@H](n2cc(F)c3c(N)ncnc32)[C@@H]1O	SRB	NCI-60 screen	–	TGI	1420 nM
Cc1cc(C)n(C(=S)[S][Au][PH](CCCCCC[PH]([Au][S]C(=S)n2nc(C)cc2C)(c2ccccc2)c2ccccc2)(c2ccccc2)c2ccccc2)n1	cell growth, NCI-60 screen	ovarian cancer	–	log10 TGI	-5.27
CCCCN1CCN(c2ccc3[nH]c(-c4ccc5[nH]c(-c6ccc(OCC)cc6)nc5c4)nc3c2)CC1	SRB	10 µM, 48 h	–	growth percent	71.9%
O=C1NC(c2ccccc2)(c2ccccc2)C(=O)N1Cc1cn(-c2cc3ccccc3oc2=O)nn1	NCI60 single dose	10 µM	–	growth	61.4%
Cn1cncc1C1=CN(c2ncnc3[nH]cnc23)CCS1	–	ovarian cancer	–	GI50	12300 nM
CCCN1CCN(c2ccc3nc(-c4ccc5nc(-c6cc(OC)ccc6OC)[nH]c5c4)[nH]c3c2)CC1	SRB	10 µM, 48 h	–	growth percent	103%
O=C1NC(=NCc2cccs2)S/C1=C\c1ccc2ncccc2c1	MTS	NCI60 panel	–	IC50	> 10000 nM
O=C1NC(c2ccccc2)(c2ccccc2)C(=O)N1Cc1cn(-c2c3ccccc3nc3ccccc23)nn1	NCI60 single dose	10 µM	–	growth	83.3%
CCCN1CCN(c2ccc3[nH]c(-c4ccc5[nH]c(-c6cc(OC)c(OC)c(OC)c6)nc5c4)nc3c2)CC1	SRB	10 µM, 48 h	–	growth percent	101%
O=C(Nc1nnc2[nH]c(=S)[nH]c(-c3ccc(Cl)cc3)c1-2)c1ccccc1	SRB	10 µM, NCI60 single-dose screen	baseline: untreated	cell growth	107%
C#C[C@@]1(O)[C@@H](CO)O[C@@H](n2cc(Br)c3c(N)ncnc32)[C@@H]1O	SRB	NCI-60 screen	–	TGI	485 nM

A few entries again:
SMILES	test	conditions	scale	measurement	result
O=C(Nc1nnc2n3c(=S)[nH][nH]c3nc(-c3ccc(Cl)cc3)c1-2)c1ccccc1	SRB	10 µM, NCI60 single-dose screen	baseline: untreated	cell growth	97.5%
